Assay results from different studies.
Parts stem from different laboratories: compare values within a part only. Values joined by “and” are separate records of one study, mostly repeats; a detail may differ.

Study 1
Compound: COc1cc(C(=O)OCCCN2CCCN(CCCOC(=O)c3cc(OC)c(OC)c(OCc4ccc([N+](=O)[O-])cc4)c3)CC2)cc(OC)c1OC
test | test system | conditions | paw withdrawal frequency
von Frey, 0.4 g filament | mouse, CFA inflammatory pain | intravenous, dose not given, 24 h post-dose, second injection, day 3 | 60% and 70% and 50%
von Frey, 0.4 g filament | mouse, CFA inflammatory pain | subcutaneous, 10 mg/kg, 3 h post-dose, second injection, day 3 | 30% and 50% and 40%
von Frey, 0.4 g filament | mouse, CFA inflammatory pain | subcutaneous, 10 mg/kg, 1 h post-dose, third injection, day 5 | 80% and 70% and 50%
von Frey test | mouse, STZ diabetic neuropathy | subcutaneous, 30 mg/kg, second of three doses, 5 h | 0.1 fraction of stimuli and 0.4 fraction of stimuli and 0.23 fraction of stimuli and 0.19 fraction of stimuli and 0.08 fraction of stimuli and 0.36 fraction of stimuli and 0.11 fraction of stimuli
von Frey, 0.4 g filament | mouse, CFA inflammatory pain | intravenous, dose not given, 1 h post-dose, first injection, day 1 | 30% and 40% and 50%
von Frey, 0.4 g filament | mouse, CFA inflammatory pain | subcutaneous, 10 mg/kg, 1 h post-dose, first injection, day 1 | 50% and 80% and 70% and 90%
von Frey, 0.4 g filament | mouse, CFA inflammatory pain | subcutaneous, 10 mg/kg, 1 h post-dose, second injection, day 3 | 80% and 50% and 70%
von Frey, 0.4 g filament | mouse, CFA inflammatory pain | intravenous, dose not given, 24 h post-dose, third injection, day 5 | 50% and 30% and 40%
von Frey test | mouse, spared nerve injury | intrathecal, 100 nmol, third of 3 doses, 24 h | 90% and 60%
von Frey, 0.4 g filament | mouse, CFA inflammatory pain | intravenous, dose not given, 3 h post-dose, first injection, day 1 | 30% and 40% and 20%
von Frey test | mouse, spared nerve injury | intrathecal, 100 nmol, third of 3 doses, 3 h | 10% and 30% and 20%
von Frey, 0.4 g filament | mouse, CFA inflammatory pain | subcutaneous, 10 mg/kg, 5 h post-dose, third injection, day 5 | 40% and 70% and 60% and 50%
von Frey, 0.4 g filament | mouse, CFA inflammatory pain | intravenous, dose not given, 3 h post-dose, second injection, day 3 | 20% and 30%
von Frey, 0.4 g filament | mouse, CFA inflammatory pain | subcutaneous, 10 mg/kg, 5 h post-dose, first injection, day 1 | 70% and 50% and 80%
von Frey, 0.4 g filament | mouse, CFA inflammatory pain | subcutaneous, 10 mg/kg, 24 h post-dose, third injection, day 5 | 70% and 80% and 90%

Study 2
SMILES: CCN1/C(=C/C=C2\CCCC(/C=C/C3=[N+](CC)c4ccccc4C3(C)C)=C2NCCCCCCCCN2CCC(Nc3nc4ccccc4n3Cc3ccc(F)cc3)CC2)C(C)(C)c2ccccc21
Cell line: U-87 MG
Concentration: concentration not given
Relative to: DMSO
test | log2 fold change
refers to: CEP55 mRNA | -1.68
refers to: GALK1 mRNA | -1.03
refers to: SLC25A43 mRNA | -0.824
refers to: ARMCX1 mRNA | 0.871
refers to: GTPBP2 mRNA | 1.04
refers to: LRCH2 mRNA | 2.33
refers to: FKBP7 mRNA | -1.24
refers to: INSYN2B mRNA | -2.03
refers to: ZXDC mRNA | 1.04
refers to: ING1 mRNA | 0.868
refers to: PCDHB8 mRNA | -1.79
refers to: IRAG1 mRNA | -3.97
refers to: SLC25A13 mRNA | -0.958
refers to: ASF1B mRNA | -1.7
refers to: DISP2 mRNA | -1.45
refers to: SGMS1 mRNA | 0.948

Study 3
Cell line: HCC1569
Read-out: CDK1 Thr14 phosphorylation
Technique: in-cell western
Concentration: 333.33 nM
Direction: lower = stronger inhibition
SMILES | phospho-CDK1 (Thr14) level
Cc1ccc(O)c(C)c1-c1cnc2[nH]c(-c3cnc(N4CCC5(CC4)CC(N4CCN(c6ccc(NC7CCC(=O)NC7=O)cc6F)CC4)CO5)nc3)cc2c1C#N (stereo not shown) | 115 a.u.
Cc1ccc(O)c(C)c1-c1cnc2[nH]c(-c3cnc(N4CCC(CN5CCN(c6cc7c(cc6F)n(C6CCC(=O)NC6=O)c(=O)n7C)CC5)CC4)nc3)cc2c1C#N (stereo not shown) | 81.3 a.u. and 82 a.u.
Cc1ccc(O)c(C)c1-c1cnc2[nH]c(-c3cnc(N4CCC(CN5CCN(c6cc7c(cc6F)c(N6CCC(=O)NC6=O)nn7C)CC5)CC4)nc3)cc2c1C#N | 110 a.u. and 87.1 a.u.
Cc1ccc(O)c(C)c1-c1cnc2[nH]c(-c3cnc(N4CCC(CN5CCC(c6ccc(NC7CCC(=O)NC7=O)cc6F)CC5)CC4)nc3)cc2c1C#N (stereo not shown) | 89.4 a.u. and 86.2 a.u.
Cc1ccc(O)c(C)c1-c1cnc2[nH]c(-c3cnc(N4CCC(CN5CCN(c6ccc(NC7CCC(=O)NC7=O)cc6F)CC5)CC4)nc3)cc2c1C#N (stereo not shown) | 88.6 a.u. and 97.3 a.u.

Study 4
SMILES: CCCN1C(=O)C(O)(C(=O)O)Oc2cc(F)ccc21 (stereo not shown)
organism | test | test system | conditions | how to read | inhibition
Alopecurus aequalis | fresh weight |  | 150 g ai/ha, pre-emergence treatment |  | 87.2% and 85.4% and 88.4%
Arabidopsis thaliana | hypocotyl length | Col-0, seedlings | 6.25 µg/mL |  | 10.9%
Arabidopsis thaliana | root length | Col-0, seedlings | 12.5 µg/mL | relative to: water control | 30.8%
Arabidopsis thaliana | root length | Col-0 | 100 µg/mL, 7 days, seed germination, dark |  | 89.2%
Arabidopsis thaliana | hypocotyl length | Col-0, seedlings | 50 µg/mL |  | 47.7%
Arabidopsis thaliana | root length | Col-0 | 3.13 µg/mL, 7 days, seed germination, dark |  | 9.4%
Eclipta prostrata | fresh weight |  | 150 g ai/ha, post-emergence treatment |  | 75.6% and 73.5% and 73.2%
Arabidopsis thaliana | hypocotyl length | Col-0 | 6.25 µg/mL, 7 days, seed germination, dark |  | 10.9%
Arabidopsis thaliana | root length | Col-0 | 50.0 µg/mL, 7 days, seed germination, dark |  | 65.5%
Setaria viridis | fresh weight |  | 150 g ai/ha, pre-emergence treatment |  | 71.5% and 81.1% and 74.8%
Arabidopsis thaliana | hypocotyl length | Col-0, seedlings | 25 µg/mL |  | 28.9%
Arabidopsis thaliana | root length | Col-0, seedlings | 3.125 µg/mL | relative to: water control | 9.42%
Arabidopsis thaliana | hypocotyl length | Col-0 | 50.0 µg/mL, 7 days, seed germination, dark |  | 47.7%

A few entries again (study 1):
test | test system | conditions | paw withdrawal frequency
von Frey, 0.4 g filament | mouse, CFA inflammatory pain | intravenous, dose not given, 24 h post-dose, second injection, day 3 | 60% and 70% and 50%
von Frey, 0.4 g filament | mouse, CFA inflammatory pain | subcutaneous, 10 mg/kg, 3 h post-dose, second injection, day 3 | 30% and 50% and 40%
von Frey, 0.4 g filament | mouse, CFA inflammatory pain | subcutaneous, 10 mg/kg, 1 h post-dose, third injection, day 5 | 80% and 70% and 50%
von Frey test | mouse, STZ diabetic neuropathy | subcutaneous, 30 mg/kg, second of three doses, 5 h | 0.1 fraction of stimuli and 0.4 fraction of stimuli and 0.23 fraction of stimuli and 0.19 fraction of stimuli and 0.08 fraction of stimuli and 0.36 fraction of stimuli and 0.11 fraction of stimuli
